Experimental data of several laboratories.
Each numbered part is a random draw from the data of one study; scales do not carry over between parts.
Chain of UniProt P37173 (whole entry, looked up): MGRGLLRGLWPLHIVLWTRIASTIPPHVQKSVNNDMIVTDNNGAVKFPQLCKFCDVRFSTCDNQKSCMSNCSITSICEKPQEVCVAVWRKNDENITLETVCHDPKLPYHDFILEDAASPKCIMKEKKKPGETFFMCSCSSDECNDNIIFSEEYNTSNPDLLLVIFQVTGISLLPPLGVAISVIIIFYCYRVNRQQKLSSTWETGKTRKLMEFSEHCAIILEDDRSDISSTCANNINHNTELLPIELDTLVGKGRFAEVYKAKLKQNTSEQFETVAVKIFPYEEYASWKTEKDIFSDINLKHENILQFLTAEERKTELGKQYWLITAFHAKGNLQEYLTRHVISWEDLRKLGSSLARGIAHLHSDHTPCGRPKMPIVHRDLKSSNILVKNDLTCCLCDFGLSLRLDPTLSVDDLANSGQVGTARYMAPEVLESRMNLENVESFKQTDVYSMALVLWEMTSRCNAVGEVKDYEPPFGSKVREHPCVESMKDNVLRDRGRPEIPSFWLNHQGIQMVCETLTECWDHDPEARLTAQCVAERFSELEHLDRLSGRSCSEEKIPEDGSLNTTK
Chain of UniProt P36897 (whole entry, looked up): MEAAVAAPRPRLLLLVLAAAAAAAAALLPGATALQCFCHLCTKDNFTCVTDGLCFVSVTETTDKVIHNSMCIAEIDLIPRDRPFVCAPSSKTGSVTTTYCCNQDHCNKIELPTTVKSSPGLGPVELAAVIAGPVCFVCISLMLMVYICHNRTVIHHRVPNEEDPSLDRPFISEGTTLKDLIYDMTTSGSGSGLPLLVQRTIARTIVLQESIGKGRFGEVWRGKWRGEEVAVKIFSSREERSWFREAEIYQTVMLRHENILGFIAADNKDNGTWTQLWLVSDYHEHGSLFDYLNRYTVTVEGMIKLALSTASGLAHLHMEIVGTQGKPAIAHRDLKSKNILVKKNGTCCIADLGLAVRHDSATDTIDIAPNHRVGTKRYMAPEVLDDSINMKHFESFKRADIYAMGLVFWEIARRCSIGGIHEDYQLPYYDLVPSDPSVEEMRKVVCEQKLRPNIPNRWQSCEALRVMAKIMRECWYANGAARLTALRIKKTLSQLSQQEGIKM
Chain of UniProt P35626 (whole entry, looked up): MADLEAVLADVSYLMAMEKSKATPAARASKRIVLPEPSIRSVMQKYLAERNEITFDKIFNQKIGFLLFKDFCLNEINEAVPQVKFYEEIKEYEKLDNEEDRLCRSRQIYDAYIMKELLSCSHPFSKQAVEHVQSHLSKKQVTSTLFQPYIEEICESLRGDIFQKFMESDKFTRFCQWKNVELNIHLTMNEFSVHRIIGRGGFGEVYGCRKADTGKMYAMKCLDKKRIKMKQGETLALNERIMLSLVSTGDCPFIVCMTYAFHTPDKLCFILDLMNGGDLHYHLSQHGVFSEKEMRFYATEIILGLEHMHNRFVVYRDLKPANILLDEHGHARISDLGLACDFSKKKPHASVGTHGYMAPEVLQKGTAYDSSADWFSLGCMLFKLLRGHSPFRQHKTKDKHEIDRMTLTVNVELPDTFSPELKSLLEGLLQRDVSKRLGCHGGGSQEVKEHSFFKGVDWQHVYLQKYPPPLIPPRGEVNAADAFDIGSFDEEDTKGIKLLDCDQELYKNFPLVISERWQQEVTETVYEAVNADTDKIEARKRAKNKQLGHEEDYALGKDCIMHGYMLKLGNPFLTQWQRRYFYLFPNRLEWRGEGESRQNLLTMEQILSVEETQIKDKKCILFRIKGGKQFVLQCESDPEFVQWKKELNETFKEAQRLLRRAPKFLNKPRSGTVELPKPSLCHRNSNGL
Chain of UniProt Q96RR4 (whole entry, looked up): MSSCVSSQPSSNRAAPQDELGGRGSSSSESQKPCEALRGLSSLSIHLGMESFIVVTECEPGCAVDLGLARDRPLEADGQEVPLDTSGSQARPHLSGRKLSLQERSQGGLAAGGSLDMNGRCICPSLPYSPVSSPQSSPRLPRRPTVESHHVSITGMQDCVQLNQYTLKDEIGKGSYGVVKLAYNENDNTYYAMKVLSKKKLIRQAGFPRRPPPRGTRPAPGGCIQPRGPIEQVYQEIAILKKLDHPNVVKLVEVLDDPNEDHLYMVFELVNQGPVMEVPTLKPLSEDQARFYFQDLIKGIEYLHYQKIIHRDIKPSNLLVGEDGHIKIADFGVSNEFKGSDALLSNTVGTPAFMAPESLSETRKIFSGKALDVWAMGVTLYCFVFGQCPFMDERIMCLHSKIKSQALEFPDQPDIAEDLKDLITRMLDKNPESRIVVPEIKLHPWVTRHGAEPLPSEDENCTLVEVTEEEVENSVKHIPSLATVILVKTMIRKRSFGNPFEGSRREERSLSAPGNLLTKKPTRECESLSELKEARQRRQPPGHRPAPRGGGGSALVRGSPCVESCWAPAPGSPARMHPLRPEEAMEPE
Chain of UniProt P07948 (whole entry, looked up): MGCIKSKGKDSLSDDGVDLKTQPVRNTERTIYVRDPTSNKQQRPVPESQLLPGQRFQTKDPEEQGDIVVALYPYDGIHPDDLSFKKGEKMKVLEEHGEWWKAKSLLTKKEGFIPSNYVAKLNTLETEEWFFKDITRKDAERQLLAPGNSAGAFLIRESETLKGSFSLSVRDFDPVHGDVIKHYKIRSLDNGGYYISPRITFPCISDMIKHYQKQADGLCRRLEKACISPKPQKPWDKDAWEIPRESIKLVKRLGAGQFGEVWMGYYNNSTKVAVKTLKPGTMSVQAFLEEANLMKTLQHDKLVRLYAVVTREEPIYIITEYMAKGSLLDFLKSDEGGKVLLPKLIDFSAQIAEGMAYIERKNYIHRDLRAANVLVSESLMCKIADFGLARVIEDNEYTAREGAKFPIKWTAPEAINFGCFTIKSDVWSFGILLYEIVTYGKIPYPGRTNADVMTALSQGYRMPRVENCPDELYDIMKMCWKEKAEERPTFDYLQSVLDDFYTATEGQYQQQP
Chain of UniProt P11802 (whole entry, looked up): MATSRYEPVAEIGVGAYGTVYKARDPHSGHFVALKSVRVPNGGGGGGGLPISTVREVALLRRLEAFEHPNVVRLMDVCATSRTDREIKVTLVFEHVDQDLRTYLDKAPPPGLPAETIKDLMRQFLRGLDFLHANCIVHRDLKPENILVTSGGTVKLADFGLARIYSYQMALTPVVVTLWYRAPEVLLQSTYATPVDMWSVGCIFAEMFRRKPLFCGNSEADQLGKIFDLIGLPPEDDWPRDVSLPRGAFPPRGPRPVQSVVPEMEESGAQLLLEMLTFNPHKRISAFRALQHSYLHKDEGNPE
Chain of UniProt P51955 (whole entry, looked up): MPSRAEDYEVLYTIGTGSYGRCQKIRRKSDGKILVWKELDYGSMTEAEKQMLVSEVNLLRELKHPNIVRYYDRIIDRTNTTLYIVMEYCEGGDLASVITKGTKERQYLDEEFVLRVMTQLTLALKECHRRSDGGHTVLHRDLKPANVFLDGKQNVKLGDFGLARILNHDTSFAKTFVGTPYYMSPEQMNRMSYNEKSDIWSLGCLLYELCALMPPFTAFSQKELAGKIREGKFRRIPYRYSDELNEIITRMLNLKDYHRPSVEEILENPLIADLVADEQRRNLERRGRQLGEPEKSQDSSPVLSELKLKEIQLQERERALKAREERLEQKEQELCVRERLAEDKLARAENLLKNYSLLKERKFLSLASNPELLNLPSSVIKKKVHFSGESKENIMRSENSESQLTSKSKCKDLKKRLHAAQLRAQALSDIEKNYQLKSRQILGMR
Chain of UniProt Q9UIK4 (whole entry, looked up): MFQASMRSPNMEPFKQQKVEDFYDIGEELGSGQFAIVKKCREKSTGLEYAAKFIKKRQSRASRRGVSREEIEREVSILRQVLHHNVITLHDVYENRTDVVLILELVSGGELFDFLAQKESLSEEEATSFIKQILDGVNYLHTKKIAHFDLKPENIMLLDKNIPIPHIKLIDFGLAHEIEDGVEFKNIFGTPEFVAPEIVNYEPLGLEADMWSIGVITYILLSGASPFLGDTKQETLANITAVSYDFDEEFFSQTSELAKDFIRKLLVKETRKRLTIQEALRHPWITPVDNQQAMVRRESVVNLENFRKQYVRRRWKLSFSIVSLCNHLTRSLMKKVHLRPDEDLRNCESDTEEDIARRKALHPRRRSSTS

Series 1
Cell line: HEK-293T/ACE2
Method: Hoechst nuclei count
Tested at: concentration not given
Time: 16 (unit not given)
Relative to: vehicle
SMILES	viability [%]
C[C@]12CC[C@H](O)CC1=CC[C@@H]1[C@@H]2CC[C@]2(C)C(c3cccnc3)=CC[C@@H]12	95.9
CO[C@@]1(NC(=O)Cc2cccs2)C(=O)N2C(C(=O)O)=C(COC(N)=O)CS[C@@H]21	96
OCCOCCN1CCN(C(c2ccccc2)c2ccc(Cl)cc2)CC1 (stereo not drawn)	101
CC[C@@H]1/C=C(\C)C[C@H](C)C[C@H](OC)[C@H]2O[C@@](O)(C(=O)C(=O)N3CCCC[C@H]3C(=O)O[C@H](/C(C)=C/[C@@H]3CC[C@H](Cl)[C@H](OC)C3)[C@H](C)[C@@H](O)CC1=O)[C@H](C)C[C@@H]2OC	102
COc1cc(C(=O)NS(=O)(=O)c2ccccc2C)ccc1Cc1cn(C)c2ccc(NC(=O)OC3CCCC3)cc12	99.6
O=S(=O)(O)Oc1ccc(C(c2ccc(OS(=O)(=O)O)cc2)c2ccccn2)cc1	99.2
CC(=O)O[C@H]1CC[C@@]2(C)C(=CC[C@@H]3[C@@H]2CC[C@]2(C)C(c4cccnc4)=CC[C@@H]32)C1	96.1
CCCCCCC(=O)O[C@H]1CC[C@H]2[C@@H]3CCC4=CC(=O)CC[C@]4(C)[C@H]3CC[C@]12C	101
CO[C@H]1C(=O)[C@]2(C)[C@@H](OC)C[C@H]3OC[C@@]3(OC(C)=O)[C@H]2[C@H](OC(=O)c2ccccc2)[C@]2(O)C[C@H](OC(=O)[C@H](O)[C@@H](NC(=O)OC(C)(C)C)c3ccccc3)C(C)=C1C2(C)C	60.9
CO[C@H]1/C=C/O[C@@]2(C)Oc3c(C)c(O)c4c(c3C2=O)C2=NC3(CCN(CC(C)C)CC3)NC2=C(NC(=O)/C(C)=C\C=C\[C@H](C)[C@H](O)[C@@H](C)[C@@H](O)[C@@H](C)[C@H](OC(C)=O)[C@@H]1C)C4=O	99.7
CN(Cc1cnc2nc(N)nc(N)c2n1)c1ccc(C(=O)N[C@@H](CCC(=O)O)C(=O)O)cc1	88.1

Series 2
SMILES: CCn1cnc2c(Nc3cccc(Cl)c3)nc(N[C@H]3CCCC[C@H]3N)nc21
Read-out: enzyme activity
Action: inhibitor
Tested at: 0.5 µM
Relative to: control
target	remaining activity
STK10 (Homo sapiens, UniProt O94804)	75.1%
NEK2 (Homo sapiens, UniProt P51955)	100%
Tyrosine-protein kinase Lyn, isoform B (LYN, Homo sapiens, UniProt P07948)	92.9%
STK39 (Homo sapiens, UniProt Q9UEW8)	106%
CAMKK2 (Homo sapiens, UniProt Q96RR4)	86.1%
TGFBR1 (Homo sapiens, UniProt P36897)	95.6%
DAPK2 (Homo sapiens, UniProt Q9UIK4)	99%
IKBKE (Homo sapiens, UniProt Q14164)	99.5%
Cyclin-dependent kinase 4, with cyclin D1 (CDK4, Homo sapiens, UniProt P11802)	89.9%
PRKCA (Homo sapiens, UniProt P17252)	68.2%
TGFBR2 (Homo sapiens, UniProt P37173)	91.2%
GRK3 (Homo sapiens, UniProt P35626)	89.2%

Series 3
Organism: Sarcocystis neurona
Read-out: parasite growth
Tested at: 10 µM
Time: 96 h
Setting: secondary screen
Structure (SMILES)	inhibition
NC(=NCc1ccc(Cl)cc1)SCCCc1cnc[nH]1	-22.4%
CC(O)(CS(=O)(=O)c1ccc(F)cc1)C(=O)Nc1ccc(C#N)c(C(F)(F)F)c1 (stereo not drawn)	-26.8%
CC[C@@H](C(N)=O)N1CCCC1=O	-22.7%
C[C@]12CC[C@H](O)CC1=CC[C@@H]1[C@@H]2CC[C@]2(C)C(=O)CC[C@@H]12	-15.2%
C=CCN1CC[C@]23c4c5ccc(O)c4O[C@H]2C(=O)CC[C@@]3(O)[C@H]1C5	-7%
CC(C)CC(N(C)C)C1(c2ccc(Cl)cc2)CCC1 (stereo not drawn)	-38.8%

Series 4
Cell line: HEK-293T-ACE2-TMPRSS2
Method: cell count
Tested at: concentration not given
SMILES	viability [%]
NC(=O)OC(c1ccccc1)C(Cl)(Cl)Cl (stereo not drawn)	108
O=C(OCCc1ccccc1/C=C\[N+](=O)[O-])c1ccc(C(F)(F)F)cc1	75
CCS(=O)(=O)c1ncc(Cl)c(C(=O)Nc2cc(C)ccc2C)n1	77
Cc1oc2ncnc(N3CCC(C(=O)NCCc4cccs4)CC3)c2c1C	67
CCOC(=O)c1oc2ccc(S(=O)(=O)N(C)CCc3c(C)nn(CC)c3C)cc2c1C	70
COc1ccc(-c2noc(CC3CCN(C(=O)c4cncc(Br)c4)CC3)n2)cc1	78
CCOC(=O)c1ccc2c(c1)[C@@H]1C=CC[C@@H]1[C@H](c1ccccc1OCc1ccccc1)N2	81
COc1nccnc1-c1ccnc2[nH]ccc12	120
CCC(CC)n1nc(C)cc1NC(=O)C(=O)Nc1ccc(C)cc1C	81
CC(C)Nc1ncc(CN2CCC(c3ccnc(-c4ccc5c(c4)OCO5)c3)C2)cn1 (stereo not drawn)	67
Cn1ccc2ccn(CC(=O)Nc3cccc(Br)c3)c(=O)c21	103
Cc1ccc(S(=O)(=O)NC(C(=O)NCC(=O)N2CCCc3ccccc32)C(C)C)cc1 (stereo not drawn)	65
COc1cccc(NC(=O)CCC2CCN(C(=O)c3cnn(C(C)C)c3)CC2)c1	108
Cc1ccc(S(=O)(=O)N2CCC(C(=O)Nc3nc4ccccc4s3)CC2)cc1	73
Cc1cc(C(=O)Cn2ncc(Cl)c(Cl)c2=O)c(C)n1C1CC1	94
N#CC(C#N)=C/C=C(\Sc1nnnn1-c1ccccc1)c1ccccc1	65
Cc1ccc(C(=O)NCCC2=CCCN(C3C=CCCC3)C2)cc1F (stereo not drawn)	81
CCOC(=O)c1cccc(NC(=O)CCS(=O)(=O)c2ccc(Br)s2)c1	108
c1ccc(-c2cn3c(n2)CCc2ccc4cccnc4c2-3)cc1	67
CC(C)c1ccc(CN2CCCC3(CCN(C(=O)c4ccc5[nH]cnc5c4)C3)C2)cc1 (stereo not drawn)	72
Cc1ccsc1C(=O)N1C2CCC1c1cnc(-c3ccc(F)cc3)nc1C2 (stereo not drawn)	71
Cc1oc(-c2cccs2)nc1CN(C)C1CCCc2ccccc21 (stereo not drawn)	104
CCOCC(=O)N1CC(F)(F)C[C@H]1c1nc(C2CC2)no1	112
Cc1nn(C)c(C)c1CCNS(=O)(=O)c1ccc(NC(=O)CC(C)C)cc1	66
CCn1nc(C)c([N+](=O)[O-])c1C(=O)NCC(=O)c1ccc(Cl)cc1	71
